Published values gathered from unrelated publications.
A part holds a random share of what one study measured.

Series 1
Target: Phosphate system positive regulatory protein PHO4, full length, GST-tagged (PHO4, Saccharomyces cerevisiae, UniProt P07270, residues 1-312)
Method: competition protein-binding microarray
Molecule type: double-stranded DNA, one strand shown
Matrix: in vitro
Tested at: 2 µM
Setting: whole 60-bp probe, lowest competitor level
With: Cbf1 competitor, 0.05 µM
Direction: higher = stronger binding
Residues (chain): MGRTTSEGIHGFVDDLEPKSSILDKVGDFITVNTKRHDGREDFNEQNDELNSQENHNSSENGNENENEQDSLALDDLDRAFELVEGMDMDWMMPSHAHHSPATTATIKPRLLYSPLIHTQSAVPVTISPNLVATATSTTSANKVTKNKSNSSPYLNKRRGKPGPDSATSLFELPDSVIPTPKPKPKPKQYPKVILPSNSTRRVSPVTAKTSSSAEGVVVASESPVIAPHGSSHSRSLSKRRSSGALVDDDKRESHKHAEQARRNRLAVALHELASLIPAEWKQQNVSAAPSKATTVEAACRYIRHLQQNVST
Sequence | fluorescence intensity
CGGGGTTAAGTTTGCGTCGTGGGTGGCTTGCAGCAGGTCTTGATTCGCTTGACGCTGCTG | 7660 a.u.
GGGCTGGATAGCCATCAGGTGCTGCACAGATTACTAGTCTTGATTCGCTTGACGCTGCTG | 4870 a.u.
AAAGCGGTAATTTGTCACGCGACTTCACATATCTATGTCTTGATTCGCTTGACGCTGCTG | 7530 a.u.
GACACGACTGACAAACAAAAGTTAATATATATTACAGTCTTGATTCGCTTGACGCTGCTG | 4390 a.u.
TTATATCAACCGTATGGCGTGCTTTAGCTGCAATAAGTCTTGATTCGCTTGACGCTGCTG | 6480 a.u.
CATGTTCATACCCTTCACGTTTGTGGAGCAAAGGTTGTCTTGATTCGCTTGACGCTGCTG | 10200 a.u.
AGGAACCTCAATCGGCACGGCCAACTCGCAAGCGCAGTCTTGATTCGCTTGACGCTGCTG | 4360 a.u.
ACTACGAATTTTTCATTCGTGACTCGAAAAACCTAGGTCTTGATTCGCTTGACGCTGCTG | 4150 a.u.
TCGCAGATGTTGCCCAGCCTGATCCAGCTCGTATTAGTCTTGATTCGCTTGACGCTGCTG | 2460 a.u.
CTTTCCCGATCTTGCATCGTGGGTGTAGCACATTTGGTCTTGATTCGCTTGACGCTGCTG | 11100 a.u.
GTTACAGATCTCCTACACGTTACATGTTCCAAAGTAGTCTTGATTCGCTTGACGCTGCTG | 8180 a.u.
GACAGAAAAATTTGTCACGTGACGGGAAAAGTTACGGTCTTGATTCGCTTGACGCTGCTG | 14800 a.u.
TTTTCTTTTCTGTTAAACGTGTGAATTGTCGTTCCTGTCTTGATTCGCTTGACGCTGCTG | 9760 a.u.
GGTATGTTCTGCAACAGCGTGCCAGTCTCTTGGCCCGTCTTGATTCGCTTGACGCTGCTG | 9340 a.u.
TCATGCTAAAAATGAGGCGTGGGACAATATTCAGTAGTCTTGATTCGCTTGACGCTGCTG | 8280 a.u.
ACTAACGACTATTTGCACGTTGCAGTATTGTTCTGGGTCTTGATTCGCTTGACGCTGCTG | 13500 a.u.
AATGTTTCTTCCCAACAAATGCAAGAAGTCAGAAAGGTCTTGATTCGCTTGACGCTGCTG | 2700 a.u.

Series 2
Target: RNA binding protein fox-1 homolog 2, RRM domain, GST-SBP tag (RBFOX2, Homo sapiens, UniProt O43251-10, residues 100-194)
Method: RNA Bind-n-Seq
Molecule type: RNA
Matrix: in vitro
Tested at: 365 nM
Setting: natural RNA segment, single round, ends assumed
Relative to: no-protein control
Direction: higher = stronger binding
Target sequence (chain): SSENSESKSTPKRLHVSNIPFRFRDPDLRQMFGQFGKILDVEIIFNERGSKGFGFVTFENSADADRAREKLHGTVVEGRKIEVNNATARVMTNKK
Sequence | RBNS enrichment (R)
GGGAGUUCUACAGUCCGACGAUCCACUAUUUAUUGACAGGUUGGGCUGUGUGUGUGCGCAUGUGUGUAUACAUUUCCAGGCGUGCCUGUGUCCUGUAGCUUUUUAAAAGGAAACCCAGUCAUCCCACUAUGAAUGGAAUUCUCGGGUGCCAA | 0.812
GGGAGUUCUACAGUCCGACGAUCAAAAAUGACAAUGAAGAGACACUUUGACAUUUCCUACCUUUUGAGGACUUGAUCCUUCUCCAGGAAGAAGGUGCUUUCUGCUUACUGACUUAGGCAAUACACCAAGGGCGUGGAAUUCUCGGGUGCCAA | 0.378
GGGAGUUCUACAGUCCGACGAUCAAUUUCAGAAUGGUUUCUUAAAUUUCCUUGGGAACCGUUUCCACAUAUCAGUUAUAGACAAAGGCCAUGGGACUAUGCUAAACCAAUAAAACCUUAUUAGCAAAUCUUUAUGGAAUUCUCGGGUGCCAA | 0.393
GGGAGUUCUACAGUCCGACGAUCCCCCCCUACACCAGCCAUAGGCCUGUUCUUUUUCUUCCUUCUGAAAACUGUGACCAGUUCAAAUUAUGACUCAGAACGUAGGGCCAGCACCAGCUACCUCUGCAGACUCCUGGAAUUCUCGGGUGCCAA | 0.452
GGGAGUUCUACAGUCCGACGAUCGGAGGCAAAUGGGUUGUACAAGGUUUUAUGGCUCCGCGGGGAAUUUAAUUUCCUUUCUGGGCACCUUUUGUCCCCUACUUUUAAAUUAACGGUGAAACGGCCCUAGGAGGUGGAAUUCUCGGGUGCCAA | 0.54
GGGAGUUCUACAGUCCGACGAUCUAAGUCAGAAUACAAAUCAGCACAGAUAUUCGAAUGUUUCCAAUAUUUUAAAAUGUAAUGUUACUUAUGAAAAGUAUUUUGCUUAAGGUUGUGUGUGUAUUGUGUAUAUAUGGAAUUCUCGGGUGCCAA | 0.455
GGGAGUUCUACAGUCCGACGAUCUGACAAACCUAUCUCUUGGACUCAAGUUGGAUUGAUCAAGUUGAACCCUUUGAACCUGAUGUGACUUCAGCAAUAACCUUCACCUGACUCUGGAGCCUCCGUCUCUUCGAUGGAAUUCUCGGGUGCCAA | 0.301
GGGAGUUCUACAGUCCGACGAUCGUGGUUUGGGCAAAUUUCUGCAGGUCCCUUCCCCCCAACCCCGUCUCUGAUGAAUAAAGACCAUGAGUGGAGUUCCUUAACUCAGGCUUUUGUGAGUAGUUUACUAAGGAUGGAAUUCUCGGGUGCCAA | 0.544
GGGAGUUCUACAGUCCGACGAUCACAGGCUUCCAGGUUAGGCACUGUGAAUAGGCUCAGCUCCUCUAGAGAGCUGAAGCCAUCUGGUUCUUAGAUUCCUCUCCCAGUCCUCUUUCCCAUUGUUCUGUUGCUCCUGGAAUUCUCGGGUGCCAA | 0.44
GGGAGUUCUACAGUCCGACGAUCUAUGAAAGACAGCACCUCACUGCUCCUGCAGACACAAGGGCCACCGGGGAGUUCCUGAAAGACUAGUUAGGGACAUUUGCUCAUCUCCUUCUGAGGCCAUCUGCAGAAAGUGGAAUUCUCGGGUGCCAA | 0.411
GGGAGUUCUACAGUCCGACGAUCUUUUAGUUAAAUUGAUGCACUACACUUUUGAUGUUUGAAGUUACAAACCUGUAAUUUUUUUGUAAAGGAAAUAAUUGCCAAAUACCUAGGCCCAUUGCUGACGAUUAGUUUGGAAUUCUCGGGUGCCAA | 0.573
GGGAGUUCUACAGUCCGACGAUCAUCUUUAAACAUGGGAAUAUGUUUUCAAGACAAUUUAUAGGACAUACUUAUGUAGUUGGUGAGGUCUUCUCAAAAGUAUCUACCUUUGUUAGAUAAUAACAAGUGAUUAAUGGAAUUCUCGGGUGCCAA | 0.369

Series 3
Target: Histone acetyltransferase KAT6A, winged helix 1, GST fusion (KAT6A, Homo sapiens, UniProt Q92794, residues 1-85)
Method: protein binding microarray
Molecule type: double-stranded DNA, one strand shown
Matrix: in vitro
Tested at: not given
Setting: 8-mer, flanks averaged, mean of 2 arrays, mostly near background
Relative to: not given
Direction: higher = stronger binding
Residues (chain): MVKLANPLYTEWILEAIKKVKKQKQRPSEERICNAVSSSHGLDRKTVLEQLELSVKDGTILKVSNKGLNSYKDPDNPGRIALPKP
Sequence | E-score
CCTACTGC | -0.129
GAGGTTCA | -0.0775
ATAACGTC | -0.101
CGCGTCGC | 0.428
CTACGTAG | 0.032
AGGGAACC | -0.0145
ACAAAAGT | -0.287
GTACGTAC | 0.0727
CAGCGACC | 0.13
CAGCGGGA | 0.316
GGTGTCTA | -0.22
CGGCAAAA | 0.245
GCCGGTAA | 0.376
GAGAGGCC | -0.12
GATACTAA | -0.0269
AACTCTAG | -0.277

Series 4
Target: PABPC1L2, full length, GST fusion (mouse, UniProt A0ABA7IW68)
Method: RNAcompete
Molecule type: RNA
Matrix: in vitro
Tested at: 20 nM
Setting: 7-mer, probes averaged, single round
Relative to: mean of 7-mers
Direction: higher = stronger binding
Construct (chain): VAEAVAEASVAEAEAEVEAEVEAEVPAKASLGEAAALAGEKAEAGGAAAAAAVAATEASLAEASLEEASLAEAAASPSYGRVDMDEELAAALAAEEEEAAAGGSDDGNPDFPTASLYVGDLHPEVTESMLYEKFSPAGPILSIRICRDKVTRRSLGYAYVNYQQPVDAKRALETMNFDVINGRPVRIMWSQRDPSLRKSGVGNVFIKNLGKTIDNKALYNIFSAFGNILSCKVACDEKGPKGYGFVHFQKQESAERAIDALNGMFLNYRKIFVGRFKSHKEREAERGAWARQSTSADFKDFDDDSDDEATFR
Sequence | 7-mer Z-score
CUUGUUC | -0.508
CAACGCA | -0.2
ACGCCCG | -0.164
AACUUAC | 0.0551
UAUUGAA | -0.0518
GGCGAAG | 0.213
GUACGCG | -0.0953
GGAGCAU | -0.012
GAAAAUA | 5.16
AGAUUCG | -0.42
GGCAGUG | 0.204
CUGGUUA | -0.195
GAGGAUC | -0.128
UCGCUUG | -0.458
ACGUAUC | -0.235
UGAAUGG | -0.144
UUAUAAU | -0.11
UGGUCAA | 0.0134
AUCGGUC | -0.18
CACGACG | -0.215
AGUGAGA | -0.0464
UGAAGUG | -0.17
UCGACAA | -0.0192
CCUUGCG | -0.382

Series 5
Target: Interferon regulatory factor 7, full length, phosphomimetic (IRF7, Homo sapiens, UniProt Q92985, residues 1-503, S471D/S472D/S475D/S476D/S477D/S483D/S484D/S487D)
Method: protein-binding microarray
Molecule type: double-stranded DNA, one strand shown
Matrix: in vitro
Tested at: 2200 nM top
Setting: 60-bp whole probe
With: salmon DNA 0.4 mg/ml
Relative to: random background probes
Direction: higher = stronger binding
All sequences stand within: GCCTAGCAC … GTCTTGATTCGCTTGACGCTGCTG
Residues (chain): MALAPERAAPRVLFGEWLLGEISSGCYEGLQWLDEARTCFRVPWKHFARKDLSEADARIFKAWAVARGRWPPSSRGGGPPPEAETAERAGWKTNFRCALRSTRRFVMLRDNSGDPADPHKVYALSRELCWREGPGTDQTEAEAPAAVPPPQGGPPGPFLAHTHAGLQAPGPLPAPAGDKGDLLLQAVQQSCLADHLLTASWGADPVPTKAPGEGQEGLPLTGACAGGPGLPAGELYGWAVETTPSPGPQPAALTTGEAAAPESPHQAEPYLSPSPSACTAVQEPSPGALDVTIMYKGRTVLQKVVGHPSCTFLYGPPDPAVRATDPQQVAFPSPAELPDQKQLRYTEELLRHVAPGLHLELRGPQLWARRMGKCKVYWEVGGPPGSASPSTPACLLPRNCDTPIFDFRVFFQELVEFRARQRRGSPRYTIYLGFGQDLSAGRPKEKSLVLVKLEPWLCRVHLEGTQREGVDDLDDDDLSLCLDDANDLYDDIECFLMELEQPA
Sequence | fitted relative affinity [z-score]
TTAGGTATCGGCCTGGGTTAGTGCTAG | -0.131
GACGAACTGGGGTATCCAGACGTGCTA | -0.328
GACGATATCAGACTGGAGACGTGCTAG | -0.0908
TCACCACCCACTCTGGCACTGTGCTAG | 1.37
TCATCCATCACTTTCCAACTGTGCTAG | 3.08
GATGATTTCAGTCTCGAGACGTGCTAG | 0.709
CCCACTTTCAGTTCTCCCTTGTGCTAG | 9.74
TTAAGTTTCCTACTGCTTTAGTGCTAG | 1.67
GACGGGCTCCTTCTCCTGACGTGCTAG | -0.202
GACGATTTGAGTCTCGAGACGTGCTAG | 0.415
TTAGGAATGGGTTTCGGTTAGTGCTAG | 3.64
ACCTCTCACGCATCTGAAACCGTGCTA | 1.21
TAAGGTATCCTACTGCTTTAGTGCTAG | 0.415
TTCTCTCTGGCCCTCCTGAGGTGCTAG | 0.467
TTAGGTTTCGACTAGCGGTTAGTGCTA | 3.22
TTAGGTATCGGGTTTCGTTTAGTGCTA | 3.31
TTAGGTTTCGACACTGCGTTAGTGCTA | 2.25
TTAGAACTGGGGTATCGACTAGTGCTA | 0.0217
GACGGTTTCCTACTGCAGACGTGCTAG | 1.87
GGCGGTTTCGGGACTGGGGACGTGCTA | 3.02
GACGGTTTCGGTACTGGGGACGTGCTA | 5.59
TTAGATTCCAGTTGCGATTAGTGCTAG | 2.12
TCAGATTTATCAAATGTGACTGTGCTA | -0.219
GACGGTTTCGGGTTTCGTGACGTGCTA | 9.02
